Assay results from different studies.
Compare with care: the assays were run in different laboratories. Several values in a cell are separate wells, animals, samples, runs or records.
GBA2: Beta-glucosidase (GBA2, Homo sapiens, UniProt Q9HCG7)
Chain of UniProt Q9HCG7 (whole entry, looked up): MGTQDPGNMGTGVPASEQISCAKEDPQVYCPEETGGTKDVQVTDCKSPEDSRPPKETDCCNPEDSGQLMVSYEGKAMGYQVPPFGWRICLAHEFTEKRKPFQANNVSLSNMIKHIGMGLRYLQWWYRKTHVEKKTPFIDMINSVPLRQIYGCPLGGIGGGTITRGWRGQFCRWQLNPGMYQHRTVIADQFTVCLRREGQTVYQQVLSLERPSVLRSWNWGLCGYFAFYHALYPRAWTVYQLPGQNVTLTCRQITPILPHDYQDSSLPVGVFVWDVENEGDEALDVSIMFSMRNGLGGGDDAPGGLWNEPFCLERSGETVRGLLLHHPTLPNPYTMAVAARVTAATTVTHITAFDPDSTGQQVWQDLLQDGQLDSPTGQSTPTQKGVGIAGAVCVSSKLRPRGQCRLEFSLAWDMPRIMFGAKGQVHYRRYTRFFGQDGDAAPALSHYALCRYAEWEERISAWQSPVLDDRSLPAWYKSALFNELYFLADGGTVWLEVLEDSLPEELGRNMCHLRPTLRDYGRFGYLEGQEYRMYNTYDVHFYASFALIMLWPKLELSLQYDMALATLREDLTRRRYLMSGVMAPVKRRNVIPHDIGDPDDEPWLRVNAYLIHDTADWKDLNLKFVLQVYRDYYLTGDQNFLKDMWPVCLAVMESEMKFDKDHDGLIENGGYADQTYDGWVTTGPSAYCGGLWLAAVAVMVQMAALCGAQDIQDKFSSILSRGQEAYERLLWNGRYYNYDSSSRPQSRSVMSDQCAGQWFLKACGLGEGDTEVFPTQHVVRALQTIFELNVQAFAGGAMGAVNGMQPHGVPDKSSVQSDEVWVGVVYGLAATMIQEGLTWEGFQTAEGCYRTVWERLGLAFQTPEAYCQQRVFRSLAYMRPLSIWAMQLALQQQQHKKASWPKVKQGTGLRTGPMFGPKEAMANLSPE
PPARA ligand-binding domain: Peroxisome proliferator-activated receptor alpha, ligand-binding domain (PPARA, Homo sapiens, UniProt Q07869)
Chain of UniProt Q07869 (whole entry, looked up): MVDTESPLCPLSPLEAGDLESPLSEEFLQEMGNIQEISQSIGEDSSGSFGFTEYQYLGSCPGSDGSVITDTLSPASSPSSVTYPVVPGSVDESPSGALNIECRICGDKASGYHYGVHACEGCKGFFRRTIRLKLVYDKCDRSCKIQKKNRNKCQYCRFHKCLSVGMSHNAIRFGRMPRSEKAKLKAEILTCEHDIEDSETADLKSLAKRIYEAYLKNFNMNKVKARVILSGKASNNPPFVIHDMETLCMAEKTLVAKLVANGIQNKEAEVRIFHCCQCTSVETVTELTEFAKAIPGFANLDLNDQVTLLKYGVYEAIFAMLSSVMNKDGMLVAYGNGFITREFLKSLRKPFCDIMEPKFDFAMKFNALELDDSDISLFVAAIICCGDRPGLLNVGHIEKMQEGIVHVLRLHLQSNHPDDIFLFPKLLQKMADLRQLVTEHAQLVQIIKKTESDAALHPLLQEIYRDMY
Chymotrypsinogen A: Chymotrypsinogen A (Bos taurus, UniProt P00766)
Chain of UniProt P30874 (whole entry, looked up): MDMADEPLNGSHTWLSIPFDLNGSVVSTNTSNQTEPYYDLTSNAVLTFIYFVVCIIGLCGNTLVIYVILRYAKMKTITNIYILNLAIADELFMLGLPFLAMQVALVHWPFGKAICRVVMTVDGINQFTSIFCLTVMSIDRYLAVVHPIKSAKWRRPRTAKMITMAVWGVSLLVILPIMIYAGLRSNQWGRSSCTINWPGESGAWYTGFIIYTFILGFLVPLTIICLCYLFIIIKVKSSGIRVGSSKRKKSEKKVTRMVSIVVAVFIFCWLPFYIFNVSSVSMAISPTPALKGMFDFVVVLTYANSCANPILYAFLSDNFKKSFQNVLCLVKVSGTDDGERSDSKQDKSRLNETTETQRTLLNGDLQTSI
Chain of UniProt P10997 (whole entry, looked up): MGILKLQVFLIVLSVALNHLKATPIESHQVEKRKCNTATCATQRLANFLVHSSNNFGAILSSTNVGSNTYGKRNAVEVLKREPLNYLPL
Chain of UniProt Q8NER1 (whole entry, unmodified, looked up): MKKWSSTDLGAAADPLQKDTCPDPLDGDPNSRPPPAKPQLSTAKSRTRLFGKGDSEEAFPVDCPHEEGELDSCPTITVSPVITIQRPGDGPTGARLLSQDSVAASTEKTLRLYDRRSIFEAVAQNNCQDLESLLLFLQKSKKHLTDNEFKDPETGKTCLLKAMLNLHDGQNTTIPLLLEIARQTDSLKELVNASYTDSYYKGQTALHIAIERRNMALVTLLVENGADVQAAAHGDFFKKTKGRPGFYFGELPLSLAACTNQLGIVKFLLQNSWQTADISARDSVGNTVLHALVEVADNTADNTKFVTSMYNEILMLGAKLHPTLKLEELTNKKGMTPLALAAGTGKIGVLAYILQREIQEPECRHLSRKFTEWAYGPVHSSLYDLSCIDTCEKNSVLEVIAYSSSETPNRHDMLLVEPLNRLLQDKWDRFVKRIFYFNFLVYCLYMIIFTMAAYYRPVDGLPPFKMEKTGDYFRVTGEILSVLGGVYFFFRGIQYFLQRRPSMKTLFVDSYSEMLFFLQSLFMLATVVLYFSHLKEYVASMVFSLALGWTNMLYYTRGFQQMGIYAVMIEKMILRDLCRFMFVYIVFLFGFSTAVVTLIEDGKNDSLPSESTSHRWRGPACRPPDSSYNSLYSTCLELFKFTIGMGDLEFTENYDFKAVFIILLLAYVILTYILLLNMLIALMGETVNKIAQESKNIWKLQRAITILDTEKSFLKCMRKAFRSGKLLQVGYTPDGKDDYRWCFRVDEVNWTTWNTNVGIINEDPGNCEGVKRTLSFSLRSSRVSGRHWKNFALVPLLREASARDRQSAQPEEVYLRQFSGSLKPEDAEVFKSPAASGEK
Chain of UniProt P07949 (whole entry, looked up): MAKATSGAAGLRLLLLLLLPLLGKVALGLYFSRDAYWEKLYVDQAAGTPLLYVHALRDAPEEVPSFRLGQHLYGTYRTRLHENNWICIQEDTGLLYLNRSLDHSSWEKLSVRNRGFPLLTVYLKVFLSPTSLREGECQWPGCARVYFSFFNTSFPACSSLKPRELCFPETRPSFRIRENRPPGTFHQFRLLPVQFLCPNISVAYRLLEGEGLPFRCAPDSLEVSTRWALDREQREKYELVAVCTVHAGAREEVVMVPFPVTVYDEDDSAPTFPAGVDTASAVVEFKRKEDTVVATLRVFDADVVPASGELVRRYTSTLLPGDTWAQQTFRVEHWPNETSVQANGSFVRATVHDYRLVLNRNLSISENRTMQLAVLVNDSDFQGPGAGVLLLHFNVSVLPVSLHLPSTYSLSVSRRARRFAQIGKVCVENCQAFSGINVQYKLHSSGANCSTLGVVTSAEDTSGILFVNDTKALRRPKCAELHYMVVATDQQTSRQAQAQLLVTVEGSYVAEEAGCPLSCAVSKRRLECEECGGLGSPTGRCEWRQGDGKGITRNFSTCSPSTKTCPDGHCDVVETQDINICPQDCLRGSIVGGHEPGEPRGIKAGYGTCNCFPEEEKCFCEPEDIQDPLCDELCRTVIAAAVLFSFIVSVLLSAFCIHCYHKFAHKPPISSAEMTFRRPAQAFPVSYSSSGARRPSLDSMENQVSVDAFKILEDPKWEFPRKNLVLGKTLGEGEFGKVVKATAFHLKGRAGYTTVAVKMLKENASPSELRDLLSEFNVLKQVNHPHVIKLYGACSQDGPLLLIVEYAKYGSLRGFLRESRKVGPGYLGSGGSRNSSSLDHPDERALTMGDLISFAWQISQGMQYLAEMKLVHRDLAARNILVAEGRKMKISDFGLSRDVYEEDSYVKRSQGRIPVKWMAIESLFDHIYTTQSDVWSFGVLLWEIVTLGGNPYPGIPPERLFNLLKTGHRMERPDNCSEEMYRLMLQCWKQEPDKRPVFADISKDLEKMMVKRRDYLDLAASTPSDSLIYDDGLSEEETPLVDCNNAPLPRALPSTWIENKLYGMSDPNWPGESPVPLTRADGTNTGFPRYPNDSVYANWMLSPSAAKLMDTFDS
Chain of UniProt P07550 (whole entry, unmodified, looked up): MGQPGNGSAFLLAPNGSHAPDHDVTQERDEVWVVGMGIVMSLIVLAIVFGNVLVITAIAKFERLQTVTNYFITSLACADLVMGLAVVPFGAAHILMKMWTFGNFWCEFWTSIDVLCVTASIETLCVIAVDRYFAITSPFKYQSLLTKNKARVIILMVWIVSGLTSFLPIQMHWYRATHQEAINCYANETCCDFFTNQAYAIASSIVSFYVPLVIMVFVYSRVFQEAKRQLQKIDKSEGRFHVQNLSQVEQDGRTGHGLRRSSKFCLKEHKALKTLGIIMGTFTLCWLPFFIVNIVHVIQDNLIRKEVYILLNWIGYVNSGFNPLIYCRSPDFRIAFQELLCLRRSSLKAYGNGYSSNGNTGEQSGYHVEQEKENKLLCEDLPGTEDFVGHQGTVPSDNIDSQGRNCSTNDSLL
Chain of UniProt P42229 (whole entry, looked up): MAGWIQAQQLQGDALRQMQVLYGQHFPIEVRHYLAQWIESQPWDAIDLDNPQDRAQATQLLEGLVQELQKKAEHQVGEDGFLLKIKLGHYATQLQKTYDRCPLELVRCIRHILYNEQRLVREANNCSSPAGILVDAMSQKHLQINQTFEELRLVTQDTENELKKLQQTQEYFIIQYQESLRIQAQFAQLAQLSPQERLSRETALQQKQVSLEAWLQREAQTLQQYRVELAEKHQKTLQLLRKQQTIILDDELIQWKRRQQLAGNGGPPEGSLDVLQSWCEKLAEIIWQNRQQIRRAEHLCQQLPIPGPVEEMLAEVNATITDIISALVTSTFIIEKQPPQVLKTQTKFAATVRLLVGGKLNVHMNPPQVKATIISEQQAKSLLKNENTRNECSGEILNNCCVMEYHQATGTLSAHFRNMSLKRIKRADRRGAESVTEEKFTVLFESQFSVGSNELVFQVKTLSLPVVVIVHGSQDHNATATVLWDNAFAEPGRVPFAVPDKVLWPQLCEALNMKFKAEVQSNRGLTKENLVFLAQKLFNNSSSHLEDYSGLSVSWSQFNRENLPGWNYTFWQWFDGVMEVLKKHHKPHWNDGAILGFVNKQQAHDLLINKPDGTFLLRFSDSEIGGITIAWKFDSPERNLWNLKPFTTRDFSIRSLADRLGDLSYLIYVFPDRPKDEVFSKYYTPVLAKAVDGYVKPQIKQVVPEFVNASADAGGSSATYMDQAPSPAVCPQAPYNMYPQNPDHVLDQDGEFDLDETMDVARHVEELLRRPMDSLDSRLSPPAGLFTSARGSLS

SMILES | tested on | assay | test system | conditions | how to read | endpoint | value
O=C1NC(=O)C(c2ccc(O)cc2)=C1Cl | Sensor histidine kinase AirS (Staphylococcus aureus, UniProt Q2FX96) | autophosphorylation, inhibitor, BODIPY-FL-ATPγS in-gel fluorescence | – | lower bound of confidence interval | – | IC50 | 39 µM
Cc1nn(-c2cccc(N)c2)c(=O)c2cnc(Nc3ccc(N4CCNCC4)cc3)nc12 | RET (Homo sapiens, UniProt P07949) | enzyme activity, inhibitor | – | – | – | IC50 | > 10 µM
OC[C@H]1[C@@H](O)[C@H](O)[C@@H](O)CN1CCCCCOCc1ccc(-c2ccccc2)c(F)c1 | GBA2 | inhibitor, 4MU-β-D-glucopyranoside | HEK293T homogenates overexpressing GBA2 | – | – | IC50 | 0.0006 µM
Cc1c(Cc2cccc(OC(C)C(=O)O)c2)c2ccc(C(=O)N[C@@H](C)c3ccc(C(F)(F)F)cc3)cc2n1C (stereo partly shown) | PPARA ligand-binding domain | reporter gene, luciferase reporter | HEK293T, Gal4-PPARα LBD | – | – | IC50 | 5.16 µM
CN(C)c1ccc(/N=N/c2ccc(C(=O)OCCCCN)cc2)cc1 | IAPP (Homo sapiens, UniProt P10997) | ThT displacement, ThT fluorescence | – | pH 7.4, preformed target-ThT complex, together with: 5 µM ThT | – | IC50 | 0.36 µM
CCOc1ccc(NC(=O)C(C(F)(F)F)C(F)(F)F)cc1 | Chymotrypsinogen A | enzyme activity, inhibitor, fluorescence | – | – | – | IC50 | 27 µM
C/C1=C\CC/C(C)=C/CC(C)(C)/C=C/C1 | TRPV1 (Homo sapiens, UniProt Q8NER1, F496Q) | ion current, inhibitor, patch clamp | – | – | – | IC50 | 10.4 µM
OC[C@H]1N[C@H](CCCCCCOCC23CC4CC(CC(C4)C2)C3)[C@H](O)[C@@H](O)[C@@H]1O | GBA2 | inhibitor, 4MU-β-D-glucopyranoside | HEK293T homogenates overexpressing GBA2 | – | – | IC50 | 0.034 µM
O=C(Nc1ccc(Oc2ccccc2)cc1)C(C(F)(F)F)C(F)(F)F | Chymotrypsinogen A | enzyme activity, inhibitor, fluorescence | – | – | – | IC50 | > 100 µM
OC[C@@H]1[C@@H](O)[C@H](O)[C@@H](O)CN1CCCCCOCc1ccc(-c2ccc3c(c2)OCO3)cc1 | GBA2 | inhibitor, 4MU-β-D-glucopyranoside | HEK293T homogenates overexpressing GBA2 | – | – | IC50 | 0.002 µM
Cc1nc2ccccc2c(=O)n1N | Cathepsin B (CTSB, Homo sapiens, UniProt P07858) | enzyme activity, inhibitor | – | – | – | IC50 | 163 µM
CCCCCCCN1C[C@H](O)[C@@H](O)[C@H](O)[C@@H]1CO | GBA2 | inhibitor, 4MU-β-D-glucopyranoside | HEK293T homogenates overexpressing GBA2 | – | – | IC50 | 0.04 µM
COC1CN([C@H]2CC[C@H]([C@@]3(C)Oc4c(Cl)cc(C(=O)NCc5c(SC)cc(C)[nH]c5=O)c(C)c4O3)CC2)C1 | – | RNA-seq, item: CACNA1E | human, whole blood | dose not given, 24 h | relative to: pretreatment baseline | log2 fold change | 2.26
N=C(N)SCc1ccccc1CSC(=N)N | Cytochrome P450 2C8 (CYP2C8, Homo sapiens, UniProt P10632) | enzyme activity, inhibitor | – | – | – | IC50 | > 10 µM
O=C(Nc1cccc2c1OCC2)C(C(F)(F)F)C(F)(F)F | Chymotrypsinogen A | enzyme activity, inhibitor, fluorescence | – | – | – | IC50 | 20 µM
Fc1ccc(Nc2nc(NC3CCCCC3)c3cc(C(F)(F)F)ccc3n2)cc1F | ADRB2 (Homo sapiens, UniProt P07550, Q170L) | β-arrestin2 recruitment, antagonist, BRET | HEK293 | mutant Q170L, together with: isoprenaline 1 µM | – | IC50 | 0.316 µM
Cc1c(Cc2cccc(OC(C(=O)O)C(C)C)c2)c2ccc(C(=O)NC(C)c3cccc(C(C)(C)C)c3)cc2n1C (mixture of isomers) | PPARA ligand-binding domain | reporter gene, luciferase reporter | HEK293T, Gal4-PPARα LBD | – | – | IC50 | 3.02 µM
O=C(NCc1ccc(OP(=O)(O)O)c(OP(=O)(O)O)c1)OCC1c2ccccc2-c2ccccc21 | Signal transducer and activator of transcription 5A, SH2 (Homo sapiens, UniProt P42229) | ligand displacement, FP | – | – | – | IC50 | 22.3 µM
C[C@@H](O)[C@H](NC(=O)[C@@H]1CSSC[C@@H](NC(=O)[C@H](Cc2ccccc2)NC(N)=O)C(=O)N[C@@H](Cc2ccc(NC(N)=O)cc2)C(=O)N[C@H](Cc2c[nH]c3ccccc23)C(=O)N[C@@H](CCCCN)C(=O)N[C@@H]([C@@H](C)O)C(=O)N1)C(N)=O | SSTR2 (Homo sapiens, UniProt P30874) | radioligand binding, inhibitor, competitive radioligand displacement | – | cloned receptor | – | IC50 | 0.957 µM and 0.405 µM

Some of these lines once more:
SMILES | tested on | assay | test system | conditions | how to read | endpoint | value
CN(C)c1ccc(/N=N/c2ccc(C(=O)OCCCCN)cc2)cc1 | IAPP (Homo sapiens, UniProt P10997) | ThT displacement, ThT fluorescence | – | pH 7.4, preformed target-ThT complex, together with: 5 µM ThT | – | IC50 | 0.36 µM
CCOc1ccc(NC(=O)C(C(F)(F)F)C(F)(F)F)cc1 | Chymotrypsinogen A | enzyme activity, inhibitor, fluorescence | – | – | – | IC50 | 27 µM
